Assay results gathered from unrelated publications.
Compare with care: the assays were run in different laboratories.
Tumor necrosis factor receptor superfamily member 9/Nectin-4: Tumor necrosis factor receptor superfamily member 9/Nectin-4 (Homo sapiens, UniProt Q07011+Q96NY8)
UniProt Q07011, sequence (whole entry, looked up): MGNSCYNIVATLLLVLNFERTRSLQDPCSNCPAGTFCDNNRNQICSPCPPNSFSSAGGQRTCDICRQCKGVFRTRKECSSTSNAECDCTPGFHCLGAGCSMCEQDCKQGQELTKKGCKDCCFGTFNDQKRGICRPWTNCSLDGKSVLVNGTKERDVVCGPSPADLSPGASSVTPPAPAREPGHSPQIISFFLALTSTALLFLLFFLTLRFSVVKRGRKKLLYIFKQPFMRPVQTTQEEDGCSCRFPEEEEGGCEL
UniProt Q96NY8, sequence (whole entry, looked up): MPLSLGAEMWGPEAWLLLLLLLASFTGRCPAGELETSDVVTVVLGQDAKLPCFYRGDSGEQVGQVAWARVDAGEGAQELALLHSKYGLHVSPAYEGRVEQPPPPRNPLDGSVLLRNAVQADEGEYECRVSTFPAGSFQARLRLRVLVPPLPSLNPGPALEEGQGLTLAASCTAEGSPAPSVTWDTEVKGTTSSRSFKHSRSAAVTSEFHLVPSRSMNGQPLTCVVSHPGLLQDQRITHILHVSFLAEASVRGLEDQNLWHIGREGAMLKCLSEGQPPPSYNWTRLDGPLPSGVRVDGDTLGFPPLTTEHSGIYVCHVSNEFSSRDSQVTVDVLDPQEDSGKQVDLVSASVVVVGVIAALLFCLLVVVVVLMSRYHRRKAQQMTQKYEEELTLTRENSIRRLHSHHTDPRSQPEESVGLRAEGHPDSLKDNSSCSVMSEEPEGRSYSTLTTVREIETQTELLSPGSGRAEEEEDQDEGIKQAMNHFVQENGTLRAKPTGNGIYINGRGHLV
ABCG2: Broad substrate specificity ATP-binding cassette transporter ABCG2 (ABCG2, Homo sapiens, UniProt Q9UNQ0)
UniProt Q9UNQ0, sequence (whole entry, looked up): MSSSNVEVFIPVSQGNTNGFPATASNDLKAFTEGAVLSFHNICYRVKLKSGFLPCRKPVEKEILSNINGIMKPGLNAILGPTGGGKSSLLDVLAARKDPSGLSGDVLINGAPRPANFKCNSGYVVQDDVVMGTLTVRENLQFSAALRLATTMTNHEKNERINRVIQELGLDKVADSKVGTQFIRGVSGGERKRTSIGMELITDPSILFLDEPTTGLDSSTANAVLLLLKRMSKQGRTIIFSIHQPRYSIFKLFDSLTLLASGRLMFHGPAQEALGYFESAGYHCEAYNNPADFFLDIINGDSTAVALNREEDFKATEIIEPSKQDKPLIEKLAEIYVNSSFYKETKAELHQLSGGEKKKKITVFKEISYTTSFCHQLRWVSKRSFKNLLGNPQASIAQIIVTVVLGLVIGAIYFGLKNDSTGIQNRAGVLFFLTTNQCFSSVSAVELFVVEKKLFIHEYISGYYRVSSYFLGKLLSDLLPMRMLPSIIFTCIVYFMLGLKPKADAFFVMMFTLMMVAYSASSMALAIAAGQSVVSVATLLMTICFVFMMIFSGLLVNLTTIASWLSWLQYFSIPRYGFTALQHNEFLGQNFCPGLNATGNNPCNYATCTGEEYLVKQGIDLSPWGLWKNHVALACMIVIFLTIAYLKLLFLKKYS
UniProt P33261, sequence (whole entry, looked up): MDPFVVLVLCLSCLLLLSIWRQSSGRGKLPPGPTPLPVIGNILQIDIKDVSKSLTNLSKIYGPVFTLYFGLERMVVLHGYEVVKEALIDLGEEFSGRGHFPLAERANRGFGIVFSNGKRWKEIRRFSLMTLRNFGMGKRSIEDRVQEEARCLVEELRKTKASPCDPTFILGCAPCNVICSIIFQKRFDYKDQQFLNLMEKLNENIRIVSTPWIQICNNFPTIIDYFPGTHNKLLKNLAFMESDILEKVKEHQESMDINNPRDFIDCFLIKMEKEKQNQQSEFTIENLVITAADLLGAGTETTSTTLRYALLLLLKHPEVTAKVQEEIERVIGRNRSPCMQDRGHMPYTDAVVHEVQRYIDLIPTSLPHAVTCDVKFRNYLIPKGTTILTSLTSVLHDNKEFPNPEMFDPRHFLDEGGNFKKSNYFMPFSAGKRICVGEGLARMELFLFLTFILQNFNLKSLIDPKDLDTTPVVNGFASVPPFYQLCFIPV
UniProt Q9NPD5, sequence (whole entry, looked up): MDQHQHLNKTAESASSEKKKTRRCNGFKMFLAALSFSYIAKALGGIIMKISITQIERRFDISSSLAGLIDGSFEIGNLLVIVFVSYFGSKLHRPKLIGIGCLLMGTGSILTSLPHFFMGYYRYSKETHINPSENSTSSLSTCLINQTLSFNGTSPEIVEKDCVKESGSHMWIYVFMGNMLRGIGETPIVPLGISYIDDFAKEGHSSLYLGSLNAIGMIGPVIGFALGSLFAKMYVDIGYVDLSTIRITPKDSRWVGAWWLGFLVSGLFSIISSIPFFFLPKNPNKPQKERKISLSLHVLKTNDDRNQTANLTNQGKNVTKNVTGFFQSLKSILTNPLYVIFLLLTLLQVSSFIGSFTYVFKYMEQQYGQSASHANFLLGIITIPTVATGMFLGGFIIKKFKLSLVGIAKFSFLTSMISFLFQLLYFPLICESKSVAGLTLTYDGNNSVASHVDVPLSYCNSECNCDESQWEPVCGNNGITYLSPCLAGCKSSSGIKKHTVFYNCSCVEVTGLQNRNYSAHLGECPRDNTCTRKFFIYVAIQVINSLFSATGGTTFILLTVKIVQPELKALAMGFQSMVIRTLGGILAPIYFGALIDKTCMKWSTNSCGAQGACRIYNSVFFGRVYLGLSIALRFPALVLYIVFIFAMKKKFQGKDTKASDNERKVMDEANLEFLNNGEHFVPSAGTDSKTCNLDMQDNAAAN
UniProt Q86VL8, sequence (whole entry, looked up): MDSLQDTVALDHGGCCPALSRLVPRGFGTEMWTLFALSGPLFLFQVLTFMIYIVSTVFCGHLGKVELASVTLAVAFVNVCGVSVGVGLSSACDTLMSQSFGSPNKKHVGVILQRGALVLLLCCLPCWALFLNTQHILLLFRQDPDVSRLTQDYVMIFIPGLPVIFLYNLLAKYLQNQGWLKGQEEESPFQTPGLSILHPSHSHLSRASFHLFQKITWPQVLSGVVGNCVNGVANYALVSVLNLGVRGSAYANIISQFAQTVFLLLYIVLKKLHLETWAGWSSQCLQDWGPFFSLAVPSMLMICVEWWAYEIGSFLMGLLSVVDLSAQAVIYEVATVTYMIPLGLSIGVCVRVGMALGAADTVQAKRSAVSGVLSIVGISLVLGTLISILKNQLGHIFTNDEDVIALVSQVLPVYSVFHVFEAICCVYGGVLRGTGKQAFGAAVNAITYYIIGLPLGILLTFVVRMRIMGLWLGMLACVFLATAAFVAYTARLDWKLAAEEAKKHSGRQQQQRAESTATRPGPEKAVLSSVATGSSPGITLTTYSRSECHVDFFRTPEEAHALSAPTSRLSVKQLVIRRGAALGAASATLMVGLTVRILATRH
UniProt Q9UKP4, sequence (whole entry, looked up): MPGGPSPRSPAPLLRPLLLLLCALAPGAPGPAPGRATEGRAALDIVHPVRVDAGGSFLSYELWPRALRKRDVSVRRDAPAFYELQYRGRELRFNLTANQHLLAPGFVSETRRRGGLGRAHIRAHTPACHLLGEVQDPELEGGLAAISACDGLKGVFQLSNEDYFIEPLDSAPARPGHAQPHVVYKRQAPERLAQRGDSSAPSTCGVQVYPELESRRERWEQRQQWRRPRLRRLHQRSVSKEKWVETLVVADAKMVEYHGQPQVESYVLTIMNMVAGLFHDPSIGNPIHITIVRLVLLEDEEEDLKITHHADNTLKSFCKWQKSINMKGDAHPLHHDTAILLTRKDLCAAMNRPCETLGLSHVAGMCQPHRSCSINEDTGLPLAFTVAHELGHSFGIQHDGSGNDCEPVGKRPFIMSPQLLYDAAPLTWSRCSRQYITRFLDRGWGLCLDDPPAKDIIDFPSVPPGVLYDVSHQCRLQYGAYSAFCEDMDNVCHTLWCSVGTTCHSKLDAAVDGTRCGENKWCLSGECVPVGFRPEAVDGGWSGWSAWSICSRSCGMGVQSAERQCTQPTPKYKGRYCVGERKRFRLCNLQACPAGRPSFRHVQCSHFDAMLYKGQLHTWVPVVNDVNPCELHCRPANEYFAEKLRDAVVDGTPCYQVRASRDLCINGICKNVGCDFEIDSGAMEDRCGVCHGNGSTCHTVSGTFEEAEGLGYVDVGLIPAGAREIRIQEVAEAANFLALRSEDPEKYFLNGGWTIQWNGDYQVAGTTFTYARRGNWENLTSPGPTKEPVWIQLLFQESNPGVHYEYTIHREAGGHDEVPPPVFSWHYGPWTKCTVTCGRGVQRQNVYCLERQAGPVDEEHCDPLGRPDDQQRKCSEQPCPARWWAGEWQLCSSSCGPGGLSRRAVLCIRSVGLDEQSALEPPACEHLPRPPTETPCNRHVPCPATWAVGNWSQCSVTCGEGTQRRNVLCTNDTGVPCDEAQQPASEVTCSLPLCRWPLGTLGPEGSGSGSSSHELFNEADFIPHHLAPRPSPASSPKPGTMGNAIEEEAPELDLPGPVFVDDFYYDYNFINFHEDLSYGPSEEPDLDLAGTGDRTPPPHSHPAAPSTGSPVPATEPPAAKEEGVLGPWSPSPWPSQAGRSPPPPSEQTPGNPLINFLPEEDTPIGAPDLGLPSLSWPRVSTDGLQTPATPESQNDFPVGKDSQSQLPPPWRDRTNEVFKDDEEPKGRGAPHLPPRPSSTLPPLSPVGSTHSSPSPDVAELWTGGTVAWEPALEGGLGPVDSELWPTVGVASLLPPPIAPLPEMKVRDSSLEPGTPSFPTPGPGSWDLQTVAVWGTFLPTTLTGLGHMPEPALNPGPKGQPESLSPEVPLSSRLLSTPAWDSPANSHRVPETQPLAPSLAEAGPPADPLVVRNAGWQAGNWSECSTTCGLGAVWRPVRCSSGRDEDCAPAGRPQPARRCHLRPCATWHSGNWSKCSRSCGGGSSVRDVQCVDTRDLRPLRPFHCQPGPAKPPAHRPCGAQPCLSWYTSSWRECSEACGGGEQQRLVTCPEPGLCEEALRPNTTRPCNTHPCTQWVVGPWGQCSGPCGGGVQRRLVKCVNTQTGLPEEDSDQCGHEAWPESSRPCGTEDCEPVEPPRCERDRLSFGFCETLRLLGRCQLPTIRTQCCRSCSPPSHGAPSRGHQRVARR

With CCCC[C@@H]1NC(=O)[C@H](Cc2ccc(O)cc2)NC(=O)[C@@H]2CCCN2C(=O)[C@H](CC(=O)O)NC(=O)[C@H](C)NC(=O)[C@H](Cc2ccccc2)NC(=O)[C@@H]2CSCCC(=O)N3CN(CN(C3)C(=O)CCSC[C@@H](C(=O)N[C@@H](C)C(N)=O)NC1=O)C(=O)CCSC[C@H](NC(C)=O)C(=O)N[C@@H](CC(C)(C)C)C(=O)N1CCC[C@H]1C(=O)N[C@@H](CCC(=O)O)C(=O)N[C@H](CCCCNC(=O)CCc1cn(CCOCCOCCOCCOCCOCCC(=O)NCCCC[C@H]3NC(=O)[C@H](Cc4cccc5ccccc45)NC(=O)[C@@H]4CCCN4C(=O)[C@@H](NC(C)=O)CSCCC(=O)N4CN5CN(C4)C(=O)CCSC[C@H](NC3=O)C(=O)N[C@@H](CCSC)C(=O)N[C@@H](CCCCNC(=N)N)C(=O)N[C@@H](CCC(=O)O)C(=O)N[C@@H](Cc3c[nH]c4ccccc34)C(=O)N[C@@H](CO)C(=O)N[C@@H]([C@@H](C)O)C(=O)N3CCC[C@H]3C(=O)N3C[C@H](O)C[C@H]3C(=O)N[C@@H](Cc3c[nH]c4ccccc34)C(=O)N[C@H](C(N)=O)CSCCC5=O)nn1)C(=O)N1CCC[C@H]1C(=O)N[C@@H](Cc1ccc(O)cc1)C(=O)N2 the Emax was 42 fold (Tumor necrosis factor receptor superfamily member 9/Nectin-4; reporter gene, agonist, luciferase reporter; CD137 Jurkat reporter with HT-1376; 6 h, geometric mean; baseline: wells without compound).
The inhibition of NC(=O)c1nc(F)c[nH]c1=O is reported as 24.8% (Multidrug and toxin extrusion protein 2 (SLC47A2, Homo sapiens, UniProt Q86VL8); transport, inhibitor; transiently transfected cells; 100 µM, 10 (unit not given), with: thiamine).
CC1(C)C(C=C(Cl)Cl)C1C(=O)OCc1cccc(Oc2ccccc2)c1 (stereo not drawn): “BCRP ATPase activity” “inhibited” (ABCG2; inhibition, inhibitor; 0.03 to 100 µM, with: sulfasalazine 10 µM).
With CCCC[C@@H]1NC(=O)[C@H](Cc2ccc(O)cc2)NC(=O)[C@@H]2CCCN2C(=O)[C@H](CC(=O)O)NC(=O)[C@H](C)NC(=O)[C@H](Cc2ccccc2)NC(=O)[C@@H]2CSCCC(=O)N3CN(CN(C3)C(=O)CCSC[C@H](NC(C)=O)C(=O)N[C@@H](CC(C)(C)C)C(=O)N3CCC[C@H]3C(=O)N[C@@H](CCC(=O)O)C(=O)N[C@H](CCCCNC(=O)CCc3cn(CCOCCOCCOCCOCCOCCC(=O)N[C@H]4CSCCC(=O)N5CN6CN(C5)C(=O)CCSC[C@H](NC(=O)[C@@H](CC(=O)O)NC(=O)[C@H](Cc5cccc7ccccc57)NC(=O)[C@@H]5CCCN5C4=O)C(=O)N[C@@H](CCSC)C(=O)N[C@@H](CCCCNC(=N)N)C(=O)N[C@@H](CC(=O)O)C(=O)N[C@@H](Cc4c[nH]c5ccccc45)C(=O)N[C@@H](CO)C(=O)N[C@@H]([C@@H](C)O)C(=O)N4CCC[C@H]4C(=O)N4C[C@H](O)C[C@H]4C(=O)N[C@@H](Cc4c[nH]c5ccccc45)C(=O)N[C@H](C(N)=O)CSCCC6=O)nn3)C(=O)N3CCC[C@H]3C(=O)N[C@@H](Cc3ccc(O)cc3)C(=O)N2)C(=O)CCSCCNC1=O the Emax was 37 fold (Tumor necrosis factor receptor superfamily member 9/Nectin-4; reporter gene, agonist, luciferase reporter; CD137 Jurkat reporter with HT-1376; 6 h, geometric mean; baseline: wells without compound).
Cn1nccc1[C@]1(CNC(=O)c2ccc(F)c(F)c2-c2ccc(C(F)(F)F)cc2)NC(=O)NC1=O — result for “lipophilic ligand efficiency”: 5.9 (A disintegrin and metalloproteinase with thrombospondin motifs 7 (Homo sapiens, UniProt Q9UKP4); FRET substrate).
The inhibition of N#CC[C@H](C1CCCC1)n1cc(-c2ncnc3[nH]ccc23)cn1 is reported as -3.3% (ABCG2; transport, inhibitor; 100 µM, 5 (unit not given), pH 7, with: CCK-8).
O=C(Nc1cnccc1Cl)N1CCN(Cc2ccc3c(c2)OC(F)(F)O3)CC1 has an inhibition of 21% (Cytochrome P450 2C19 (CYP2C19, Homo sapiens, UniProt P33261); enzyme activity, inhibitor; 10 µM, with: 3-cyano-7-ethoxycoumarin substrate).
With CCOC(=O)C1=C[C@@H](OC(CC)CC)[C@H](NC(C)=O)[C@@H](N)C1 the inhibition was 69.2% (Solute carrier organic anion transporter family member 1B3 (SLCO1B3, Homo sapiens, UniProt Q9NPD5); transport, inhibitor; transiently transfected cells; 100 µM, 10 (unit not given), with: CCK-8).
CC(Nc1nc(N2CCNCC2C)nc2ccccc12)c1ccccc1 (stereo not drawn) gave a maximum response of -9.08% (Vero-E6; CellTiter-Glo ATP; 72 h, second round 5-point; baseline: DMSO 0%, hyamine -100%, more negative, more toxic).
CC1(C)[C@H](C(=O)O[C@H](C#N)c2cccc(Oc3ccccc3)c2)[C@@H]1C=C(Br)Br has an enzyme contribution of 0.36% (CES2 human cytosolic; 0.1 µM, age 5 years).
The cytotoxicity efficacy of COc1ccc(Nc2cc(C(=O)NCCCN(C)Cc3ccccc3)c3ccccc3n2)cc1 is reported as -9.52% (Vero-E6; CellTiter-Glo ATP; concentration not given, 72 h, second round 5-point; baseline: DMSO 0%, hyamine -100%, more negative, more toxic).
CC1(C)[C@H](C=C(Cl)Cl)[C@H]1C(=O)OCc1cccc(Oc2ccccc2)c1 gave an enzyme contribution of 9.17% (CES2 human cytosolic; 0.1 µM, age 6 months).

Some of these lines once more:
The inhibition of N#CC[C@H](C1CCCC1)n1cc(-c2ncnc3[nH]ccc23)cn1 is reported as -3.3% (ABCG2; transport, inhibitor; 100 µM, 5 (unit not given), pH 7, with: CCK-8).
